Experimental data of several laboratories.
Every numbered part comes from another study and shows a few of its results, in no order. Changes are numbered by the printed parent chain.

Study 1
Target: Interferon regulatory factor 5, full length, phosphomimetic (IRF5, Homo sapiens, UniProt Q13568-2, residues 1-514, S451D/S453D/S456D/S462D)
Method: protein-binding microarray
Molecule type: double-stranded DNA, one strand shown
Medium: in vitro
Concentration: 940 nM top
Notes: 60-bp whole probe
Together with: salmon DNA 0.4 mg/ml
Relative to: random background probes
Reading: higher = stronger binding
Endpoint: fitted relative affinity
Shared flanks, not repeated: GCCTAGCAC … GTCTTGATTCGCTTGACGCTGCTG
TTAGGTTGCGACACTGGGTTAGTGCTA: 0.399 z-score
TTAGGTTTCGTACTGGGTTAGTGCTAG: 6.23 z-score
TTACAACTGAGTTTCGATTAGTGCTAG: 8.38 z-score
GACGGCCTCGGTCTCGGGACGTGCTAG: -0.032 z-score
TTAGGCTCCGGTTTCGGTTAGTGCTAG: 7.42 z-score

Study 2
Target: CCNE1, cyclin fold, Cln2 fusion (human)
Method: yeast growth competition, sequencing
Medium: yeast
Notes: strong parent motif
Relative to: not given
Reading: higher = stronger binding
Endpoint: normalised enrichment score
Starting sequence: BRCA2 docking peptide (human); PSIKRNLLNEFDR; partner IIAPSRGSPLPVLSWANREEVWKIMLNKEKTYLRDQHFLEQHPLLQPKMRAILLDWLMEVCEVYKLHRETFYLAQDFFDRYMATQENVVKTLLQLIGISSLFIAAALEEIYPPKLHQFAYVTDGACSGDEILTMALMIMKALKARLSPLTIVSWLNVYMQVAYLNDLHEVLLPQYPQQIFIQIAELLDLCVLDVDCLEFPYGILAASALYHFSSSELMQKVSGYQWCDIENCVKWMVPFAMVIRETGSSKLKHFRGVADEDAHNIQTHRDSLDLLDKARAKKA
PSIKRNLLQEFDR [N9Q]: 1.92
PSIERNLLNEFDR [K4E]: -0.13
PSIKRNLLNEADR [F11A]: 0.981
PSIKRVLLNEFDR [N6V]: 0.983
PSIPRNLLNEFDR [K4P]: 0.648

Study 3
Target: RING finger protein unkempt homolog, zinc fingers 1-6, GST-SBP tag (UNK, Homo sapiens, UniProt Q9C0B0, residues 30-357)
UniProt Q9C0B0, sequence (30-357, looked up): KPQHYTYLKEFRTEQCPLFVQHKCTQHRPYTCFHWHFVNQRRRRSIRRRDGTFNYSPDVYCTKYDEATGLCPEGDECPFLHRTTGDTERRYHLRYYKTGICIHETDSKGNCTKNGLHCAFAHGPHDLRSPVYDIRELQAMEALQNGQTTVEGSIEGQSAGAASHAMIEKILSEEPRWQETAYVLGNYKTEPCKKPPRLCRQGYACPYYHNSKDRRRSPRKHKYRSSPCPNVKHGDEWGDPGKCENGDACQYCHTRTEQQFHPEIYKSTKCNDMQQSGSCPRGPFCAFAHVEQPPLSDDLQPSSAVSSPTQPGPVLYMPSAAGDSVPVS
Method: RNA Bind-n-Seq
Molecule type: RNA
Medium: in vitro
Concentration: not given
Notes: RNA with constant flanks, human and mouse sites, ends assumed
Relative to: input RNA pool
Reading: higher = stronger binding
Endpoint: bound/input enrichment
Shared flanks, not repeated: GGGAGUUCUACAGUCCGACGAUC … CAACAGAGGAUUGAGCAUCA
GAAGAAAAACCCUAUAAAUGUGAUGUAUGCAACUUACAGUUUGCAACUUCUAGCAAUCUCAAGAUUCAUGCAAGGAAGCAUAGUGGAGAGAAGCCAUAUGUCUGUGAUAGGUGUGGACAG: 0.228 ratio
CUCCUGUCUCGAUUUACUCGAAAUGAGUUUAAUCUGGAAAGCAAGAGCACCAUUGGAGUAGAGUUUGCAACAAGAAGCAUCCAGGUUGAUGGAAAAACAAUAAAGGCACAGAUAUGGGAC: 0.306 ratio
GCCUGCGCUCCUAACAAAGAUGUGGCAGACUGCCUGGCCUUGAUCCUUUCCACCAUGAAGCCUUUCCCACCCAAGGACGCCGUCAGUCCUUUCAGCUUCAGCCUGCUCAAGAACUGCGGC: 0.212 ratio
GUCCAGUUUUCACUUAGAUUUAUAGCAAAAAGUACCCCAGAGAGAUCUCACUCUAUUCUGUUACAAUUCUCCAUCAGUGGAGGAAUCACUUGGCACCUGAUGGAUGAAUUUUACUUUCCU: 11 ratio
GGAGAUGGUCCUAUGUGUCGCCCAGAAAUUGUGUUACCAGGAGAAGACACACAUCCCUUCUUAGAGUUUAAAGGGUCACGACAUCCCUGCAUUACAAAGACUUUUUUUGGAGACGAUUUU: 0.716 ratio
CUUGUAAGAUCUAAAUCUCCCAAAAUCACUUAUUUUACAAGAUAUGCUAAAUGCAUUUUGAUGGAGAAUUCUCCUGGUGCUGAUUUUGAGGUUUGGUUUUAUGAUGGGGUAAAAAUACAC: 0.549 ratio

Mixed results
PhoQ, residues 284 288 289 292 302 303 AQGLTV — fold induction (PhoP, residues 12 14 15 18 19 NIMAP (Escherichia coli, UniProt P23836); Sort-seq, measured: YFP reporter; E. coli; PhoQ-PhoP variant library, together with: 10 µM Mg2+; relative to: high Mg2+ state, higher = stronger signaling): 2.08

A few entries again (study 3):
CUUGUAAGAUCUAAAUCUCCCAAAAUCACUUAUUUUACAAGAUAUGCUAAAUGCAUUUUGAUGGAGAAUUCUCCUGGUGCUGAUUUUGAGGUUUGGUUUUAUGAUGGGGUAAAAAUACAC: 0.549 ratio
GUCCAGUUUUCACUUAGAUUUAUAGCAAAAAGUACCCCAGAGAGAUCUCACUCUAUUCUGUUACAAUUCUCCAUCAGUGGAGGAAUCACUUGGCACCUGAUGGAUGAAUUUUACUUUCCU: 11 ratio
